Published values collected from several papers.
Every numbered part comes from another study and shows a few of its results, in no order. Positions count from the first letter of the parent shown.

Series 1
Target: Protein max, full length (MAX, Homo sapiens, UniProt P61244-2, residues 1-151)
Technique: protein-binding microarray
Form: double-stranded DNA, one strand shown
Sample: in vitro
Concentration: not given
Notes: k-mer, scored over probes, only values ≥0.25
Reading: higher = stronger binding
Oligonucleotide | E-score
CATGTAAC | 0.331
CATGGGAC | 0.345
CGTCATGC | 0.318
GCACGTGC | 0.496
CACACCTG | 0.328
ACATATGC | 0.296
GCACGAGC | 0.339
AGATCACG | 0.323

Series 2
Substitution: I33P
Target: ABI1, truncated, D143A, DHFR fusion (Arabidopsis thaliana)
Technique: DHFR PCA, deep sequencing
Sample: yeast
Notes: methotrexate growth selection, single substitutions
Baseline: wild-type fitted maximum
Reading: higher = stronger binding
Starting sequence: PYL1, truncated, DHFR fusion (Arabidopsis thaliana); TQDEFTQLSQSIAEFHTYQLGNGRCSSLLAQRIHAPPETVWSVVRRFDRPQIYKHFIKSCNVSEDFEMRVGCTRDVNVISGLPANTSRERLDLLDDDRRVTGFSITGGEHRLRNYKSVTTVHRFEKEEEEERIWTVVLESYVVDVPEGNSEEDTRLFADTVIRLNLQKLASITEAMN; partner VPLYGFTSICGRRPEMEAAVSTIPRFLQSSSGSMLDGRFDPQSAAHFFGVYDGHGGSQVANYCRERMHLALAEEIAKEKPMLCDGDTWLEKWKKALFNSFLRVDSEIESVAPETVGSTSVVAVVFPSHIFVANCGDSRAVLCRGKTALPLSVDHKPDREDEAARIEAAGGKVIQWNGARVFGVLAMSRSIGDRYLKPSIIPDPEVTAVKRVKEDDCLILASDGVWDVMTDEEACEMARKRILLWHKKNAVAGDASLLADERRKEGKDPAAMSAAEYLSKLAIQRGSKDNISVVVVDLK
with | relative binding score
(+)-ABA 0.032 µM | 5.87%
(+)-ABA 0.39 µM | -1.86%
(+)-ABA 4.8 µM | 18.7%
(+)-ABA 0 µM | 2.95%
(+)-ABA 1.4 µM | 7.08%
(+)-ABA 710 µM | 3.2%

Further values, each from its own experiment
P1: PafA, mature enzyme, eGFP fusion (Elizabethkingia meningoseptica, UniProt Q9KJX5); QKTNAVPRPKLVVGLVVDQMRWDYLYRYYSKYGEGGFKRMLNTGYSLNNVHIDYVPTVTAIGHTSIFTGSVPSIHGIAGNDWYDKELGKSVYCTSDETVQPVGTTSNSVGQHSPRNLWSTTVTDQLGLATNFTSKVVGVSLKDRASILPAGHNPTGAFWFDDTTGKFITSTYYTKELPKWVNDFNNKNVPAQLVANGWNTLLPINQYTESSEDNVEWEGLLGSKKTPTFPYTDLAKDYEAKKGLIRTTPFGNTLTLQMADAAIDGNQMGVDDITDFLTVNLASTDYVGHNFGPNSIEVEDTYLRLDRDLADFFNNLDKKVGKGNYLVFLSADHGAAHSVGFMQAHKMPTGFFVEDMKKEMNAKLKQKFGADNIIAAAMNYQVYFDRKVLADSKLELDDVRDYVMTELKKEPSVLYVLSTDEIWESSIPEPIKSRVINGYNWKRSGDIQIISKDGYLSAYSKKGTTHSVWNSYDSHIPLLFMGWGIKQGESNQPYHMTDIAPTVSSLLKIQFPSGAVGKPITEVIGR
Substance | tested on | test | system | conditions | how to read | endpoint | result
P1 T133G | vanadate, free oxyanion | microfluidic competitive inhibition | in vitro, cell-free expressed | not given, derived from inhibition constants, unchanged parent 676 nM | lower = stronger binding | oxyanion analog dissociation constant | 600 nM
ECI1 (Homo sapiens, UniProt P42126) | CCDC90B (Homo sapiens, UniProt Q9GZT6) | cross-linking MS | cells | with: BSPNO |  | cross-linked residues | K260 to K124

For quick reference, copied from above (series 1):
Oligonucleotide | E-score
CATGGGAC | 0.345
